Assay results collected from several papers.
Each line is one published result; not all experiments were run side by side. Numbers after ± are the reported error.
rep papain-like protease: Replicase polyprotein 1ab, papain-like protease (rep, Severe acute respiratory syndrome coronavirus 2, UniProt P0DTD1)
rep main protease: Replicase polyprotein 1ab, main protease (rep, Severe acute respiratory syndrome coronavirus 2, UniProt P0DTD1)
rep nsp12 RdRp: Replicase polyprotein 1ab, nsp12 RdRp (rep, Severe acute respiratory syndrome coronavirus 2, UniProt P0DTD1)

C[C@H](c1cccc2ccccc12)N(C)Cc1cccc2[nH]ccc12
EC50 (rep papain-like protease; enzyme activity in cells, inhibitor): < 10 µM

O=C(/C=C/c1ccc(O)c(O)c1)O[C@@H]1Cc2c(O)cc(O)cc2O[C@@H]1c1cc(O)c(O)c(O)c1
Kd (rep main protease; binding, SPR): 2.81 µM

COc1cc(O)ccc1CN(C)[C@H](C)c1cccc2ccccc12
EC50 (rep papain-like protease; enzyme activity in cells, inhibitor): > 60 µM

Cc1ccc(OCCN(C)C)cc1C(=O)N[C@H](C)c1cc(-c2cnn(C)c2)cc(-c2cncs2)c1
EC50 (rep papain-like protease; protease activity, inhibitor, FlipGFP; SARS-CoV-2): 1.3 ± 0.3 µM

O=C(/C=C/c1ccc(O)cc1)O[C@@H]1Cc2c(O)cc(O)cc2O[C@@H]1c1ccc(O)c(O)c1
Kd (rep main protease; binding, SPR): 4.48 µM

Cc1ccc(OCCN(C)C)cc1C(=O)N[C@H](C)c1cc(-c2cnn(C)c2)cc(-c2cnn(C3CC3)c2)c1
EC50 (rep papain-like protease; protease activity, inhibitor, FlipGFP; SARS-CoV-2): 0.6 ± 0.1 µM

CCOc1cccc(NC(=O)CSc2cn(C(=O)OC(C)(C)C)c3ccccc23)c1
EC50 (rep nsp12 RdRp; viral replication, measured: Gaussia luciferase; A549, SARS-CoV-2; 72 h): 1.18 µM

Cc1ccc(OCCN(C)C)cc1C(=O)N[C@H](C)c1cc(-c2cnn(C)c2)cc(-c2cnn(CC(F)(F)F)c2)c1
EC50 (rep papain-like protease; protease activity, inhibitor, FlipGFP; SARS-CoV-2): 2.4 ± 0.4 µM

Cc1cccc(NC(=O)CSc2c[nH]c3ccccc23)c1
EC50 (rep nsp12 RdRp; SARS-CoV-2 RdRp (nsp12/7/8) activity, inhibitor; HEK293T; 24 h): 2.53 µM

Repeated from above:
Cc1ccc(OCCN(C)C)cc1C(=O)N[C@H](C)c1cc(-c2cnn(C)c2)cc(-c2cncs2)c1
EC50 (rep papain-like protease; protease activity, inhibitor, FlipGFP; SARS-CoV-2): 1.3 ± 0.3 µM
